# Experimental data collected from several papers.
# Parts stem from different laboratories: compare values within a part only.

# Block 1
# Target: Replicase polyprotein 1ab, polymerase (rep, Severe acute respiratory syndrome coronavirus 2, UniProt P0DTD1)
# Effect on: enzyme activity
# Action: inhibitor
# Tested at: 20 µM
Compound,inhibition [%]
Cc1cc(Cn2nnc3c(-c4ccco4)nc(N)nc32)ccc1N,-12.3
C[C@H](Cc1ccc2c(c1)OC(C(=O)O)(C(=O)O)O2)NC[C@H](O)c1cccc(Cl)c1,4.75
CC(=O)N[C@@H](CC(C)C)C(=O)O,18.8
CN1CCN(Cc2ccc(Nc3ncc(Cl)c(Nc4ccccc4S(=O)(=O)N(C)C)n3)cc2)CC1,-1.63
CO[C@@H](C)Cn1c(=O)n(C)c2cnc3ccc(-c4cncc(C(C)(C)O)c4)cc3c21,5.61
CCCC[C@@H](NC(=O)[C@@H](Cc1cn(C(=O)OC)c2ccccc12)NC(=O)[C@H](CC(C)(C)C)NC(=O)N1[C@H](C)CCC[C@@H]1C)C(=O)O,1.47
O=C(NCCO)c1cccc(-c2cc(Nc3ccc(OC(F)(F)F)cc3)ncn2)c1,6.05
COc1cc2c(cc1OC)[C@@H](Cc1cc(OC)c(OC)c(OC)c1)[N+](C)(CCCOC(=O)CC/C=C/CCC(=O)OCCC[N+]1(C)CCc3cc(OC)c(OC)cc3[C@H]1Cc1cc(OC)c(OC)c(OC)c1)CC2 (some centres unmarked),-0.68
CCCC(O)C(CC)CO (centres unmarked),-2.93
O=c1c2c(c1=O)N(CCP(=O)(O)O)CCCN2,3.8
COc1cc(C[C@@H](CO)[C@H](CO)Cc2ccc(O)c(OC)c2)ccc1O,1.91
C[C@]12CC[C@H](O)CC1=CC[C@@H]1[C@@H]2CC[C@]2(C)C(c3cccnc3)=CC[C@@H]12,-6.64
COc1ccc(/C=C2\CCCN=C2c2cccnc2)c(OC)c1,-1.63
Nc1nc(OCc2ccccc2)c2nc[nH]c2n1,1.64
CCOC(=O)c1ccc(-c2ccc(OC(=O)N(C)Cc3cccc(-c4ccncc4)c3)cc2)cc1,1.09
O=C(O)Cc1ccc(CCNS(=O)(=O)c2ccc(Cl)cc2)cc1,2.75
O=C(O)c1ccc(OCCn2ccnc2)cc1,-1.95
CC(O)(P(=O)(O)O)P(=O)(O)O,-10.7
COc1ccccc1OC(=O)CNC(=O)Cc1ccc(C(=O)c2ccc(C)cc2)n1C,-11.9
CCCC(C)(COC(N)=O)COC(=O)NC(C)C (centres unmarked),0.88
CCCOc1ccc2[nH]cc(C3=CCNCC3)c2n1,3.91
c1ccc2cc(C3=NCCN3)ncc2c1,8.39
COc1ccc(S(=O)(=O)N(CCO)c2ccccc2CN(C)C/C=C/c2ccc(Cl)cc2)cc1,-0.45
CC(CCc1ccc(O)cc1)NCCc1ccc(O)c(O)c1 (centres unmarked),-8.43
C=C1CC[C@H](O)C/C1=C/C=C1\CCC[C@]2(C)[C@@H]([C@H](C)/C=C/[C@H](C)C(C)C)CC[C@@H]12,15.6

# Block 2
# Cell line: HEK-293T/ACE2
# Tested at: 10 µM
# Time: 16 h
# Relative to: vehicle
Compound,viability [%]
CCN(CC)C(=O)/C(C#N)=C/c1cc(O)c(O)c([N+](=O)[O-])c1,102
COc1ccc2[nH]c([S+]([O-])Cc3ncc(C)c(OC)c3C)nc2c1 (centres unmarked),100
COc1ccc(C(=O)CC(=O)c2ccc(C(C)(C)C)cc2)cc1,101
N#C/C(=C1/SC[C@@H](c2ccc(Cl)cc2Cl)S1)n1ccnc1,101

# Block 3
# Target: Replicase polyprotein 1ab, main protease (rep, Severe acute respiratory syndrome coronavirus 2, UniProt P0DTD1)
# Effect on: enzyme activity
# Action: inhibitor
# Tested at: 20 µM
# Notes: hit confirmation, with DTT
Compound,inhibition [%]
CC[C@]12C=CCN3CC[C@@]4(c5cc([C@@]6(C(=O)OC)C[C@@H]7C[C@@H](C(C)(F)F)C[N@](CCc8c6[nH]c6ccccc86)C7)c(OC)cc5N(C)[C@H]4[C@@](O)(C(=O)OC)[C@@H]1OC(C)=O)[C@@H]32,-14.4
O=C(O)C(O)Cc1ccc(O)c(O)c1 (centres unmarked),-9.1
O=C(C=Cc1ccc(O)c2c1C(C(=O)OC(Cc1ccc(O)c(O)c1)C(=O)O)C(c1ccc(O)c(O)c1)O2)OC(Cc1ccc(O)c(O)c1)C(=O)O (centres unmarked),-1.8

# Block 4
# Target: PABPC1L2, full length, GST fusion (mouse, UniProt A0ABA7IW68)
# Method: RNAcompete
# Form: RNA
# Sample: in vitro
# Tested at: 20 nM
# Notes: 7-mer, probes averaged, single round
# Relative to: mean of 7-mers
# Reading: higher = stronger binding
# Residues (chain): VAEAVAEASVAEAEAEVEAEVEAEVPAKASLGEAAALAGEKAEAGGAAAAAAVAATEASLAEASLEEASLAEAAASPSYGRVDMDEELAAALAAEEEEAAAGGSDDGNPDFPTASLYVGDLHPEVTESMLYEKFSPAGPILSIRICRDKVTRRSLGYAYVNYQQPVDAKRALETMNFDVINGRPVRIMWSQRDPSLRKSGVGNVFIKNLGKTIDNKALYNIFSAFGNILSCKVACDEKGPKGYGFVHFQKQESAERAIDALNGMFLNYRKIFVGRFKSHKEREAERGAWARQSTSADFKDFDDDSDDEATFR
Strand,7-mer Z-score
AGAGAGA,0.104
CUAAAGG,0.238
GCCAGAA,0.198
UAUGAAC,-0.0409
GGGUGCC,0.017
ACUGAGU,-0.106
GACCUCU,-0.278
GAAUUCC,-0.255

# Block 5
# Target: RING finger protein unkempt homolog, zinc fingers 1-6, GST-SBP tag (UNK, Homo sapiens, UniProt Q9C0B0, residues 30-357)
# Method: RNA Bind-n-Seq
# Form: RNA
# Sample: in vitro
# Tested at: not given
# Notes: RNA with constant flanks, human and mouse sites, ends assumed
# Relative to: input RNA pool
# Reading: higher = stronger binding
# Constant ends, left off below: GGGAGUUCUACAGUCCGACGAUC … CAACAGAGGAUUGAGCAUCA
# Residues (chain): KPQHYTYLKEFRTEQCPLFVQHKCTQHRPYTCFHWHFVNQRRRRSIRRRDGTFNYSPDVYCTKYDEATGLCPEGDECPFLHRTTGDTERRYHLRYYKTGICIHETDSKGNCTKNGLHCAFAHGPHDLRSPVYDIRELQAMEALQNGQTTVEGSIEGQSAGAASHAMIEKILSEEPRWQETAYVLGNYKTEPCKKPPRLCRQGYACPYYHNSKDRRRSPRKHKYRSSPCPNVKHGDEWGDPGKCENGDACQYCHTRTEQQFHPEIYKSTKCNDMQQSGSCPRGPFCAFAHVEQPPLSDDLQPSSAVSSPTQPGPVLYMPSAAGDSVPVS
Strand,bound/input enrichment
UGCCUGGCGCAGGUGUUGCAGAAGGAUGUGGGGAAACGAUUGCAGGUUGGCCAAGAACUGAUAGACUAUUUCUCAGACAAACAGAAGUCUGCUGACCUUGAGCAUGACCAGACCAUGUUA,0.245 ratio
CAAAGUAUUGAACGUUCUCAUCGGAUUGCCACAGAGACUGACCAGAUUGGCUCAGAAAUCAUAGAAGAGCUGGGGGAACAACGAGACCAGUUAGAACGUACCAAGAGUAGACUGGUAAAC,0.356 ratio
CUCAGGGCAGCAGAUGGAUUUUUGUUUGUCGUAGGAUGUGACCGAGGGAAGAUACUCUUUGUCUCAGAGUCUGUCUUCAAGAUCCUCAACUACAGCCAGAAUGAUCUGAUUGGUCAGAGU,0.121 ratio
AUUCCGAUUAUGGACACCGGUGAAAACCCAGAGGUUCCCUUCCCCCGGGACAUGAUUGACUUAGAGGCCAAUUUUGAGAAGAUUGAAAAUGAACUGAAGGAAAUCAACACAAACCAGGAA,0.0916 ratio
GAGUGUCGGAACUCACCUGUGGCCAAAACACCCCCAAAGGACCUGCCAGCCAUUCCUGGGGUCACUAGCCCUACCAGCGAUGAGCCUCCCAUGCAAGCCAGCCAGAGCCAACUGCCCAGC,0.158 ratio
GGCACCGUCCAAGUGACCUUAUUUAACCCCAACCAGACUGUGGUAAAGAUGUUCCUUGUGACCUUUGACUUCUCGGACAUGCCUGCUGCCCACAUGACCUUCCUGCGCCAUCGCCUCUUU,0.224 ratio
UUCUUGAGACAGGGUCUGACUGUGAAACCCUGGCUAAUCUGGAACUCACUAUGUAGACCAGACUGGUCUUGAACUCACAGAGAUCCAACUGCCUUUGCCUCCCAAGUGUUGGGAUGAAAG,0.0563 ratio
CAGGAACAACCGGCUCGGCGGCCCGGGCUCGCUGCCCAAGGGCCUGGCCCAGUCGCCGCUCUGCCGCAGCCUCCAAGUGCUCAACCUCAGCGGCAACUGCUUCCAGGAGCUGCCCGCCUC,0.236 ratio

# Block 6
# Target: RNA binding protein fox-1 homolog 2, RRM domain, GST-SBP tag (RBFOX2, Homo sapiens, UniProt O43251-10, residues 100-194)
# Method: RNA Bind-n-Seq
# Form: RNA
# Sample: in vitro
# Tested at: 365 nM
# Notes: natural RNA segment, single round, ends assumed
# Relative to: no-protein control
# Reading: higher = stronger binding
# Constant ends, left off below: GGGAGUUCUACAGUCCGACGAUC … UGGAAUUCUCGGGUGCCAA
Strand,RBNS enrichment (R)
UUCCUCUUCCUUCUCUACUCAUGCCAGAUUUUGGGAUUACAAAUAGAAGCUUCUUGCUCCUGUUUAACUCCCUAGUUACCCACCCUAAUUUGCCCUUCAGGACCCUUCUA,0.778
GCUGUGCCUGCUCGUGUUGCCUACAUGUCCCUGGCUGUUGAGGCGCUGCUUCAGCCUGCACCCCUCCCUUGUCUCAUAGAUGCUCCUUUUGACCUUUUCAAAUAAAUAUG,1.33
GAUCUGGCUUAAUAAGACUUGGUGUGGCUUAUCAGGUCACAUGUCCACCACAUCUUGAUUCUUGCAGGAGGGAAGAUUUGAUCCCUUAGAGAAAUAGCCUGUGGGACUUG,0.498
GCACCCACCUCCUCAUUGGAUGGCUCCCUCCAUGCACUGACCCUCUGCCUGCCUUUGUACCUCACUCACCUCCACCGCUCUCCAGCCCCUCUGAUGGCCACUCAGAGAAU,4.64
CAUUAUGCCUUAGAAAUGCACAUUCUGUAUUUUGUGGGAUGAUAAUCUAAUUCAGUAUAGAAUAUGCUGUUUGGCAAUGAGUUUGUGGCCAGAUUUCAAAUAGGGAGUUA,0.626
CGUGGUGGCUUUUCAUCCAGGCCUCGUAGCCAACCGUUUAAGUGCAAAAUAGAAUUAAGCAAUGGGUAAGCAAAAUAGGGUUGACAAGAUAUUUGGGGGUUAUUCGGGUU,0.809
UAAAAUCCCUGUGGCCAGUUUGAACACCCCUGUUGUAUUCUUUUCUCUGUUCAGUGUGUCAGCUAUUUUGUGAAGAUGCUUAGAUGUAUAGUUUUGAUAACCACAGUUUU,0.928
AGCUUCCGGACUUGGUUGCACCCCCAGCAAGAAAAGAAGCCAAGCAAAGCUUCUAAAGACCGAAGGAAUCUUUCCCUCACCCCCACCCCCUCGCCUUGGUGAUUUCUUGU,0.515
